Experimental data from different studies.
Protocols differ between the studies behind these lines. ± marks the error that the study gave.
Neuronal acetylcholine receptor; alpha3/beta4: Neuronal acetylcholine receptor; alpha3/beta4 (Rattus norvegicus, UniProt P04757+P12392)
UniProt P12392, sequence (whole entry, looked up): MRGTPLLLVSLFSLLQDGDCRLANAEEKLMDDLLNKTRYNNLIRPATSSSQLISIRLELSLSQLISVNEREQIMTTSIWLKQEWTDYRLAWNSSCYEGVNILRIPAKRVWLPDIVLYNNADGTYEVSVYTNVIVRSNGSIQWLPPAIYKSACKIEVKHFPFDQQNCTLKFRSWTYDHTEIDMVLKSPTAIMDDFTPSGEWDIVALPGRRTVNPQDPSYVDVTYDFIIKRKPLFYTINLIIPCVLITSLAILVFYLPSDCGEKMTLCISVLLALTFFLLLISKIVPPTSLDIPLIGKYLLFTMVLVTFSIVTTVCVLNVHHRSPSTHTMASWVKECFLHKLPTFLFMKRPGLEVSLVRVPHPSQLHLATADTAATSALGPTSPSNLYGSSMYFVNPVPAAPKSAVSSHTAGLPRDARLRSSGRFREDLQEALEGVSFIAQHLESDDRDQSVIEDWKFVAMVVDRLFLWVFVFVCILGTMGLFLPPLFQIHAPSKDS
UniProt P04757, sequence (whole entry, looked up): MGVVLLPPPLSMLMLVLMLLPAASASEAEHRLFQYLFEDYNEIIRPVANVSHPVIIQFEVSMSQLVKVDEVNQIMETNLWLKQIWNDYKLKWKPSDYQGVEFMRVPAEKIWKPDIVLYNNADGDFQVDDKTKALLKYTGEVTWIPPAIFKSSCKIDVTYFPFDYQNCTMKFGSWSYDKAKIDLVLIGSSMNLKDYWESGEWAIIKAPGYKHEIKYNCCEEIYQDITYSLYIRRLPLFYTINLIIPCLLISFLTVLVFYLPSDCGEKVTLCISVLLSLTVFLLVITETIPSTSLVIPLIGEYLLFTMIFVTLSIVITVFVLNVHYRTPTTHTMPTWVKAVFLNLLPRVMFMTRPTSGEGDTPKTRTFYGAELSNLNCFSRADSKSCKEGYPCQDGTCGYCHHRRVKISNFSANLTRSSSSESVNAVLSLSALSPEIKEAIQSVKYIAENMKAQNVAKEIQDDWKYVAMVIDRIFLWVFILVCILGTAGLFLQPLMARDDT
UniProt Q05941, sequence (whole entry, looked up): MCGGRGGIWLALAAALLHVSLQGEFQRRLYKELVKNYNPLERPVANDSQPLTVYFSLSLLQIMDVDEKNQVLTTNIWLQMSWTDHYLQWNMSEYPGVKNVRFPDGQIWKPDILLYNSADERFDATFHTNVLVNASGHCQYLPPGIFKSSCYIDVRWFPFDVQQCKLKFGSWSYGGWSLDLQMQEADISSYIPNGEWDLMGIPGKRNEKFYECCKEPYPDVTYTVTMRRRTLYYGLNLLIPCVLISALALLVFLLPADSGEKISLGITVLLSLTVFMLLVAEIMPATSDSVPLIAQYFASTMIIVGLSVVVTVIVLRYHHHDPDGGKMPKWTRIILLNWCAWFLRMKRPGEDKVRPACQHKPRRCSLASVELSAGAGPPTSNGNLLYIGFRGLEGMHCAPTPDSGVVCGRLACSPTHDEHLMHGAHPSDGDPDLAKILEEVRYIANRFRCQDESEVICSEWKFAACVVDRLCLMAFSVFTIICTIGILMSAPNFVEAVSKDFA
UniProt P09483, sequence (whole entry, looked up): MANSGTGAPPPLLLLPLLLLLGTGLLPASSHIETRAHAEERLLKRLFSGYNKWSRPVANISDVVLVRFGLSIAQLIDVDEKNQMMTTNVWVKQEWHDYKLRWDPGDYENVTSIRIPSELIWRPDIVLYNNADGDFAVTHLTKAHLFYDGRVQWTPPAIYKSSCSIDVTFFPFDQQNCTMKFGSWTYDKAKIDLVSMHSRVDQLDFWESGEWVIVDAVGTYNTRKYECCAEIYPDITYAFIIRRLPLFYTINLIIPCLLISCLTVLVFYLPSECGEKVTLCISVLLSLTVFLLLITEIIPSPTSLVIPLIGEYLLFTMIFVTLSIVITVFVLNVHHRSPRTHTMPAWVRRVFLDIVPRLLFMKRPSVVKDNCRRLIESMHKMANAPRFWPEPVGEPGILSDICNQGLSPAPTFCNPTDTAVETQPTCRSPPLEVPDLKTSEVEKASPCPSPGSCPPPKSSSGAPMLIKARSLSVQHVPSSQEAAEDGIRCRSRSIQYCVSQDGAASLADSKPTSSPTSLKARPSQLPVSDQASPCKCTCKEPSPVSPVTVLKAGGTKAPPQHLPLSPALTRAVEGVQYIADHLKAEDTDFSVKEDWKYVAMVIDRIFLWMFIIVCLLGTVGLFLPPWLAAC
UniProt P43143, sequence (whole entry, looked up): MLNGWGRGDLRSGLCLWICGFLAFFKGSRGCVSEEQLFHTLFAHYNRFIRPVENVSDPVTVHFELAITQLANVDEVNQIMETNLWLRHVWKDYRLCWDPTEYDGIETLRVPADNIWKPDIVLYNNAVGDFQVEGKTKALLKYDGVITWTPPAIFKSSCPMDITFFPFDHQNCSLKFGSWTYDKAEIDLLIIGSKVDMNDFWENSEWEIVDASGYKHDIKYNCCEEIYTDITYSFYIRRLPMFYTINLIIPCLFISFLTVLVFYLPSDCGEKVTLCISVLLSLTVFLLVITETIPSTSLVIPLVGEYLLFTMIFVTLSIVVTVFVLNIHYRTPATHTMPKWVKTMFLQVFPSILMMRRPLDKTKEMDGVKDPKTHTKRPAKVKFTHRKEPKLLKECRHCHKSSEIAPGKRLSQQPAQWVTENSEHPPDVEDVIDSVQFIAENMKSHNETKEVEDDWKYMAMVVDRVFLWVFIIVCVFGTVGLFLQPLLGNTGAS
UniProt P12390, sequence (whole entry, looked up): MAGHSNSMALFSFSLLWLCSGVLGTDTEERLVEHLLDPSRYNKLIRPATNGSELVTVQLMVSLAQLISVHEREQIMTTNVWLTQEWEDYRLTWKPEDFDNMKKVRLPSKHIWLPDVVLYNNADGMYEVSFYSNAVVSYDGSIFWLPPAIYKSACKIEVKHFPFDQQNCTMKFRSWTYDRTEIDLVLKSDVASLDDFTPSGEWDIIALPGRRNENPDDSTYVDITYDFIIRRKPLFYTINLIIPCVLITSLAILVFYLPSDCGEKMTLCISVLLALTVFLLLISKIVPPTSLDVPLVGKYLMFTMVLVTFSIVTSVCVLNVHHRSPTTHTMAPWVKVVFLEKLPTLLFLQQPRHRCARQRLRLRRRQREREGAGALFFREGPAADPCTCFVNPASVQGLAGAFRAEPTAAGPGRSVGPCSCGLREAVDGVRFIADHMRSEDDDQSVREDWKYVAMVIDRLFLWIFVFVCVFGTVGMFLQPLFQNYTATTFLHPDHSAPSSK

SMILES	target or system	test	test system	conditions	endpoint	value
CCC[C@@H]1NC(=O)[C@H](CC)NC(=O)[C@H](Cc2ccccc2)NC(=O)[C@@H]2CSSC[C@H](NC(=O)CN)C(=O)N[C@@H](CSSC[C@@H](C(N)=O)NC(=O)[C@H](Cc3ccc(O)cc3)NC1=O)C(=O)N[C@@H](CO)C(=O)N[C@@H](Cc1c[nH]cn1)C(=O)N1CCC[C@H]1C(=O)N[C@@H](CC)C(=O)N2	Neuronal acetylcholine receptor; alpha3/beta4		cells	0.01 µM	inhibition	75%
CCN(CCO)CCCC(C)Nc1ccnc2cc(Cl)ccc12 (centres unmarked)	SARS-CoV-2				IC50	1.2 µM
CCC[C@@H]1NC(=O)[C@H](CC)NC(=O)[C@H](Cc2ccccc2)NC(=O)[C@@H]2CSSC[C@H](NC(=O)CN)C(=O)N[C@@H](CSSC[C@@H](C(N)=O)NC(=O)[C@H](Cc3ccc(O)cc3)NC1=O)C(=O)N[C@@H](CO)C(=O)N[C@@H](Cc1c[nH]cn1)C(=O)N1CCC[C@H]1C(=O)N1CCC[C@H]1C(=O)N2	Neuronal acetylcholine receptor subunit alpha-7 (Chrna7, Rattus norvegicus, UniProt Q05941)		cells	10 µM	inhibition	49.8 ± 3.2%
CC[C@H](C)[C@@H]1NC(=O)[C@@H]2CCCN2C(=O)[C@H](CO)NC(=O)[C@H](CCSC)NC(=O)[C@H](C)NC(=O)[C@H](CO)NC(=O)[C@@H]2CSSC[C@H](NC(=O)CN)C(=O)N[C@@H](CSSC[C@@H](C(N)=O)NC1=O)C(=O)N[C@@H](C)C(=O)N[C@@H](Cc1c[nH]cn1)C(=O)N1CCC[C@H]1C(=O)N[C@@H](C(C)C)C(=O)N2	Neuronal acetylcholine receptor; alpha3/beta4	receptor current, antagonist	rat		Hill slope	1.16
CC[C@H](C)[C@@H]1NC(=O)[C@H](CC(=O)O)NC(=O)[C@@H]2CCCN2C(=O)[C@H](CC(N)=O)NC(=O)[C@H](CCC(N)=O)NC(=O)[C@H](CC(C)C)NC(=O)[C@H]([C@@H](C)CC)NC(=O)[C@@H]2CSSC[C@H](NC(=O)[C@@H](N)CC(=O)O)C(=O)N[C@@H](CSSC[C@@H](C(N)=O)NC1=O)C(=O)N[C@@H](CO)C(=O)N[C@@H](C)C(=O)N1CCC[C@H]1C(=O)N1CCC[C@H]1C(=O)N2	Neuronal acetylcholine receptor; alpha4/beta2 (Rattus norvegicus, UniProt P09483+P12390)		rat cells		IC50	> 10 µM
CC(=O)c1cccc(-c2nc(Nc3ccccc3)nc(N3CCOCC3)n2)c1	SARS-CoV-2				IC50	0.34 µM
O=C(N/N=C/c1cc(Br)cc(Br)c1O)c1cccnc1	tpx (Yersinia pseudotuberculosis, UniProt Q66A71)				Kd	51 µM
CC[C@H](C)[C@@H]1NC(=O)[C@@H]2CCCN2C(=O)[C@H](C)NC(=O)[C@H](CCSC)NC(=O)[C@H](C)NC(=O)[C@H](CO)NC(=O)[C@@H]2CSSC[C@H](NC(=O)CN)C(=O)N[C@@H](CSSC[C@@H](C(N)=O)NC1=O)C(=O)N[C@@H](CO)C(=O)N[C@@H](Cc1c[nH]cn1)C(=O)N1CCC[C@H]1C(=O)N[C@@H](C(C)C)C(=O)N2	Nicotinic acetylcholine receptor alpha6/alpha3/beta4 (Rattus norvegicus, UniProt P04757+P12392+P43143)	receptor current, antagonist	rat		Hill slope	1.03

For quick reference, copied from above:
SMILES	target or system	test	test system	conditions	endpoint	value
CCN(CCO)CCCC(C)Nc1ccnc2cc(Cl)ccc12 (centres unmarked)	SARS-CoV-2				IC50	1.2 µM
